Published values of several laboratories.
Compare with care: the assays were run in different laboratories. ± marks the error that the study gave.
Medium: plasma

Compound | system | conditions | half-life [min]
CCCC[C@H](NC(C)=O)C(=O)N[C@H]1CC(=O)NCCCC[C@@H](C(=O)N[C@@H](C(=O)N2CCC[C@@H]2C(N)=O)C(C)C)NC(=O)[C@H](Cc2c[nH]c3ccccc23)NC(=O)[C@H](CCCN=C(N)N)NC(=O)[C@@H](Cc2ccc3ccccc3c2)NC(=O)[C@@H]2CCCN2C1=O | Beagle dog, both sexes | subcutaneous, once daily, 0.75 mg/kg, day 28 | 174 ± 12
CC(=O)N[C@H](CSSC[C@H](N)C(=O)O)C(=O)N[C@H](C)C(=O)N[C@H](CCCNC(=N)N)C(=O)N[C@H](CCCNC(=N)N)C(=O)N[C@H](CCCNC(=N)N)C(=O)N[C@H](C)C(=O)N[C@H](CCCNC(=N)N)C(N)=O | male human | intravenous, 5 mg, single dose, healthy volunteers | 1110
CC(C)[C@H](NC(=O)CNC(=O)[C@H](CCC(N)=O)NC(=O)[C@H](C)N)C(=O)O | human male | intravenous infusion, 10 mg/kg single, 15 min infusion, geometric mean | 2.4
[2H]C([2H])([2H])NC(=O)c1ccc(N2C(=S)N(c3ccc(C#N)c(C(F)(F)F)c3)C(=O)C2(C)C)cc1F | male human | oral, 160 mg, single dose, fasted | 9540
CCc1cc(Nc2nc(-c3ccc(-n4cnc(C)c4)c(F)c3)cs2)c(C)cc1C | human | oral, 400 mg, multiple doses, once daily | 636
CC(C)(O)c1ncc([S@](N)(=O)=NC(=O)Nc2c3c(cc4c2CCC4)CCC3)s1 | human | oral, 10 mg, single dose, fasted, healthy volunteers | 468
CN1CCC[C@]1(C)/C=C/S(=O)(=O)NC(=O)Nc1c2c(cc3c1CCC3)CCC2 | human | oral, 25 mg, single dose, healthy volunteers | 390
Cc1ccc(OCC(=O)N(Cc2cccs2)c2ccn[nH]2)cc1 | beagle dog, male | oral gavage, 30 mg/kg | 268
CC12CC(c3ccc(S(C)(=O)=O)cc3)C3=C4CCC(=O)C=C4CCC3C1CCC2(O)C(F)(F)C(F)(F)F (stereo not drawn) | human | oral, 5 mg, single dose, fasted | ~1920
